Assay results gathered from unrelated publications.
Each line is one published result; not all experiments were run side by side. ± gives the spread as reported.
Cytochrome P450 2A13: Cytochrome P450 2A13 (Homo sapiens, UniProt Q16696)
Sequence of UniProt Q16696 (whole entry, looked up): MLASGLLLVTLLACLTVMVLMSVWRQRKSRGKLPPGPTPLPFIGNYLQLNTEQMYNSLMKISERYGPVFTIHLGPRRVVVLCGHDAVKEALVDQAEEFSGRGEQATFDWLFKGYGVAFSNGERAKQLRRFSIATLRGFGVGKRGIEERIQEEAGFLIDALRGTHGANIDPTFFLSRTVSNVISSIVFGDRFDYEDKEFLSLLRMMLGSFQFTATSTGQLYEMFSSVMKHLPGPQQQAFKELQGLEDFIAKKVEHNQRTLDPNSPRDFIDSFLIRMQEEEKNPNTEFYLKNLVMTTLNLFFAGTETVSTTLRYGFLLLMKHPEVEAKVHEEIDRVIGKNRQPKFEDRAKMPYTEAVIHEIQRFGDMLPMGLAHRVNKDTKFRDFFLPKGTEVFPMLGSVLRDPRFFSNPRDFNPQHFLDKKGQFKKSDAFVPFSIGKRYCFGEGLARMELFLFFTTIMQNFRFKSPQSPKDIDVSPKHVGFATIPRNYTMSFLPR
SCRIB PDZ3 domain: Protein scribble homolog, PDZ3 domain (SCRIB, Homo sapiens, UniProt Q14160)
Sequence of UniProt Q14160 (whole entry, looked up): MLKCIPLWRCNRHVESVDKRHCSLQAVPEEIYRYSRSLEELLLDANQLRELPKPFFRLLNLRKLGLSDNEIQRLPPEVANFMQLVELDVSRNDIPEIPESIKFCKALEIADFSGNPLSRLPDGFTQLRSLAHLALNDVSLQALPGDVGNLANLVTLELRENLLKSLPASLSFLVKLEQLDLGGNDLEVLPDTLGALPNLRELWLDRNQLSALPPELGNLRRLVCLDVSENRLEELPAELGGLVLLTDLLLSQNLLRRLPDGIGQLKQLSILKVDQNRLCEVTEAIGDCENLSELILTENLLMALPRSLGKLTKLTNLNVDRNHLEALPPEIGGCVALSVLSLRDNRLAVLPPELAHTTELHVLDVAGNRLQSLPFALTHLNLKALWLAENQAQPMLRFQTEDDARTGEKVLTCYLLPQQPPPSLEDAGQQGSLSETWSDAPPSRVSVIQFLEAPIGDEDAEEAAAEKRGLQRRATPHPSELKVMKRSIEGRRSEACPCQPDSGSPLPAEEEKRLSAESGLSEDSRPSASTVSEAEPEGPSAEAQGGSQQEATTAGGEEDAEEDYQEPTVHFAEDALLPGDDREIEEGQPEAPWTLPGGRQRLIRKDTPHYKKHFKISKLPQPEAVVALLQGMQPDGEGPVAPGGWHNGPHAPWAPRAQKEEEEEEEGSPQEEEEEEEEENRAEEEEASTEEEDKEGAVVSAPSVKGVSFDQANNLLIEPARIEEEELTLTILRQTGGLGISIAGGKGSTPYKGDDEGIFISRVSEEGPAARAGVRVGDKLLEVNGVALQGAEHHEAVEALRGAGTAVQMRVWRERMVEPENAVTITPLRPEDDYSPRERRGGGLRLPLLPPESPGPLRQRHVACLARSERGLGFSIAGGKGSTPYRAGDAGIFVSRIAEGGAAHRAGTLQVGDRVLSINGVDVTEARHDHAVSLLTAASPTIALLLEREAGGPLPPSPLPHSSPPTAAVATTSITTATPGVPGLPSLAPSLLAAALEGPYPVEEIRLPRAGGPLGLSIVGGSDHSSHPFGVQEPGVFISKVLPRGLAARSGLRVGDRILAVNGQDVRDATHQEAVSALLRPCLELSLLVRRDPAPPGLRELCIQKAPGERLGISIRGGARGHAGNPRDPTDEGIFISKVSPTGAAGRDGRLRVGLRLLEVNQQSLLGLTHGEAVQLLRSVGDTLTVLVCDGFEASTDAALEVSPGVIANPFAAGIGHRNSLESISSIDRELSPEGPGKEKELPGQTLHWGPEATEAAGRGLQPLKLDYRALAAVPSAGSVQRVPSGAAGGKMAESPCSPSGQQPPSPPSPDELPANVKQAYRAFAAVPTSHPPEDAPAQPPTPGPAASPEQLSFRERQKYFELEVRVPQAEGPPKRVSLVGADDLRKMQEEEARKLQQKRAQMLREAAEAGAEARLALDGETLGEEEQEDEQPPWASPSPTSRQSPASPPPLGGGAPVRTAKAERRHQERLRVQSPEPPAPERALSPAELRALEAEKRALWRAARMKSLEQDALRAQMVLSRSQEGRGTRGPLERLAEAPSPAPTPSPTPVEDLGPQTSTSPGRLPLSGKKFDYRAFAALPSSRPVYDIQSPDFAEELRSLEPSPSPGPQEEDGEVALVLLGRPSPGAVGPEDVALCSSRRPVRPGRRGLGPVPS
gag-pol reverse transcriptase: Gag-Pol polyprotein, reverse transcriptase (gag-pol, Human immunodeficiency virus 1, UniProt P03366)
Sequence of UniProt P03313 (whole entry, looked up): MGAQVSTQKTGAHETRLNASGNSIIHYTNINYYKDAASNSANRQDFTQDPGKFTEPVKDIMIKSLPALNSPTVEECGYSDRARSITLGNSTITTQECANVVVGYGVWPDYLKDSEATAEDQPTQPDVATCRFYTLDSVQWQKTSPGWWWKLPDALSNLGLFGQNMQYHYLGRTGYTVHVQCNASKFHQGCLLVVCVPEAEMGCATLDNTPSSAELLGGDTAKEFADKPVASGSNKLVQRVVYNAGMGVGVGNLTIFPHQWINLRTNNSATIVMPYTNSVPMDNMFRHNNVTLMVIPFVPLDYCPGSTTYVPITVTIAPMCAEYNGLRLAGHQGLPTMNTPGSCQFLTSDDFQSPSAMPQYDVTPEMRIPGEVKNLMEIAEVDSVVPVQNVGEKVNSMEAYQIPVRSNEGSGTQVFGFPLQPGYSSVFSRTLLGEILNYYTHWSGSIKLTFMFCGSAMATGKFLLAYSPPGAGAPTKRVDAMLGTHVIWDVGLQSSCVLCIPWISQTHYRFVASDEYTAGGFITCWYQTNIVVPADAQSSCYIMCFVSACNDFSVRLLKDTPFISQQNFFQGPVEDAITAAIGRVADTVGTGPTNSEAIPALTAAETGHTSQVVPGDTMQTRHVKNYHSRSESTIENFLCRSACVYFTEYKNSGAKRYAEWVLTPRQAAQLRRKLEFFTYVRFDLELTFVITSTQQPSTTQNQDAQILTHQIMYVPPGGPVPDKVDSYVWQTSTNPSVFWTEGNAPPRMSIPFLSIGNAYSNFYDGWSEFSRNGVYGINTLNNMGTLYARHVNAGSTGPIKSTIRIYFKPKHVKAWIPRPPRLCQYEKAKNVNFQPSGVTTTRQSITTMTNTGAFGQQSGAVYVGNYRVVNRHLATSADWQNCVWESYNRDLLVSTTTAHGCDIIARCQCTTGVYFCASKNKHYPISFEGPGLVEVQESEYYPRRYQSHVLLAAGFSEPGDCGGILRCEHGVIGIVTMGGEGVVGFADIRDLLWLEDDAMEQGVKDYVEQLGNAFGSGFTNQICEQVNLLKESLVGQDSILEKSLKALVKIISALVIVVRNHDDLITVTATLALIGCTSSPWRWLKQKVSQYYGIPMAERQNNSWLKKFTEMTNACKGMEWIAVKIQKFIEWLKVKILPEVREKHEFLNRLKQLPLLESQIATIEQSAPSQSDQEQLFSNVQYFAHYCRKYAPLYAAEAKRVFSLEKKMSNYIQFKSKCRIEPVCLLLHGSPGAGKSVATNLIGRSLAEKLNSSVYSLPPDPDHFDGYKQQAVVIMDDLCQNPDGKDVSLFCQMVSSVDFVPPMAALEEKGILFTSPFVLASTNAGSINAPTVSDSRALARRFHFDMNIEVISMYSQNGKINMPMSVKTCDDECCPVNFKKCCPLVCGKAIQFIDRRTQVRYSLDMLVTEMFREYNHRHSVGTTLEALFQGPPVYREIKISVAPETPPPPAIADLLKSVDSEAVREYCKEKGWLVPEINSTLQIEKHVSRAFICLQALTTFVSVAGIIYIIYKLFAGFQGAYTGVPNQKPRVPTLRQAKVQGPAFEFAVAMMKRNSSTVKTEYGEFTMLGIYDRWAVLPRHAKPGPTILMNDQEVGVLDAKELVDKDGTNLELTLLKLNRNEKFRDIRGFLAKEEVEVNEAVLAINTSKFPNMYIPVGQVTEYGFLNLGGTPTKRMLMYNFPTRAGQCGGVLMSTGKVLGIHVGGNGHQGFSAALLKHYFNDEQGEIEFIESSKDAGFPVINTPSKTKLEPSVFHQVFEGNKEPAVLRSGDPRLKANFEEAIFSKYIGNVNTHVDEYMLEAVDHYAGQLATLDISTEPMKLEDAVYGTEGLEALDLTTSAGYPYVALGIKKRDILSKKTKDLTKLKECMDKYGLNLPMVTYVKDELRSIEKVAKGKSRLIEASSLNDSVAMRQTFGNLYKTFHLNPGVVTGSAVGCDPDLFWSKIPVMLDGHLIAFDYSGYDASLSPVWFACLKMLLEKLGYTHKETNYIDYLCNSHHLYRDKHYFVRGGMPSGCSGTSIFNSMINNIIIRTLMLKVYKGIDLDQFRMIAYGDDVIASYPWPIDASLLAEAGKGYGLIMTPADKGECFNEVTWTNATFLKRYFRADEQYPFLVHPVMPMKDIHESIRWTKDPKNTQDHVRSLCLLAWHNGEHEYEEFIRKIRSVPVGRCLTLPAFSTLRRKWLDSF
Sequence of UniProt Q8NDF8 (whole entry, looked up): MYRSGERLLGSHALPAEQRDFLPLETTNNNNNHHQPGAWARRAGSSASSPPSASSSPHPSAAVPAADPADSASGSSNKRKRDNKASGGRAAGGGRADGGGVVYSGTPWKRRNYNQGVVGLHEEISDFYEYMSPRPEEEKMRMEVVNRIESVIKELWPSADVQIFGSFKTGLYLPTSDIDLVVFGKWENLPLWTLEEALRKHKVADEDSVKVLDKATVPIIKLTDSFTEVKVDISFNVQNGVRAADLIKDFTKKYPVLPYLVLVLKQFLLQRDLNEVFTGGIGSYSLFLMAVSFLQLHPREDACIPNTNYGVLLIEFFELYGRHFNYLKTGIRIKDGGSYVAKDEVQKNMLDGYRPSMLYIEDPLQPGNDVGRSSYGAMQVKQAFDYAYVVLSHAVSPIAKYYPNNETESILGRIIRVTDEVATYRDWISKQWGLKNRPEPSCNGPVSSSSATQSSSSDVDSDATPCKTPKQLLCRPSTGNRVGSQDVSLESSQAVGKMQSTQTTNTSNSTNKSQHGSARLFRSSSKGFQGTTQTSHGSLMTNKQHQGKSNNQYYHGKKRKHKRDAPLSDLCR

SMILES | target | test | system | conditions | quantity | value
COc1ncccc1-c1cnn2ccc(N3CCN(C(=O)OC(C)C)CC3)nc12 | Glutamate NMDA receptor; GRIN1/GRIN2A (Homo sapiens, UniProt Q05586+Q12879) | liability screen |  |  | IC50 | > 25 µM
COC1(C2CSC(=O)N2)CC2CC(CCC(C)C=CC=CCCC(C)=CC(=O)O2)O1 (centres unmarked) | Actin, alpha skeletal muscle, pyrene-labeled (ACTA1, Oryctolagus cuniculus, UniProt P68135) | actin polymerization, pyrene actin |  |  | IC50 | 9.23 ± 0.825 µM
CCc1cccc(CC)c1NC(=O)NC(=N)NCCOC | 4'-phosphopantetheinyl transferase PptT (Mycobacterium tuberculosis, UniProt O33336) | inhibitor |  |  | IC50 | 98.5 µM
CNC(C)Cc1ccc2nsnc2c1 (centres unmarked) | SLC6A3 (Homo sapiens, UniProt Q01959) |  |  |  | IC50 | 4.5 ± 1.3 µM
Nc1ncnc2c1ncn2[C@@H]1O[C@H](COP(=O)(O)OP(=O)(O)OP(=O)(O)O)[C@@H](O)[C@H]1O | GTP 3',8-cyclase (moaA, Staphylococcus aureus, UniProt P69848) | enzyme activity, GTP-competitive inhibitor |  | pH 7.6, with: GTP 10 µM | IC50 | 1820 ± 142 µM
Clc1ccc(Cl)c(-c2cc(Cl)ccc2Cl)c1 | Cytochrome P450 2A13 | enzyme activity, inhibitor |  | 20 min, pH 7.4 | IC50 | > 100 µM
CN(C)c1nc(N)c(C(=O)NC(=N)N)nc1Cl | Genome polyprotein, 3D RNA polymerase (Coxsackievirus B3, UniProt P03313) | RNA polymerase activity, inhibitor, single AMP incorporation |  | no Mg2+ preincubation | IC50 | 82 ± 29 µM
CC(C)C[C@H](NC(=O)[C@H](CC(N)=O)NC(=O)[C@@H](NC(=O)[C@H](CCC(=O)O)NC(=O)[C@H](CC(=O)O)NC(=O)[C@H](Cc1c[nH]c2ccccc12)NC(=O)[C@H](C)NC(=O)[C@@H]1CCCN1C(=O)[C@H](CC(=O)O)NC(=O)[C@@H](N)CC(N)=O)[C@@H](C)O)C(=O)O | SCRIB PDZ3 domain | binding, fluorescence polarization | solution | Scribble PDZ3 domain | Kd | 4.9 µM
CC[C@H](C)[C@H](NC(=O)[C@H](CC(C)C)NC(=O)[C@@H](NC(=O)[C@H](CCCCN)NC(=O)[C@@H](NC(=O)[C@@H](NC(=O)[C@H](CO)NC(=O)[C@H](CCC(N)=O)NC(=O)[C@@H](N)CO)[C@@H](C)O)C(C)C)C(C)C)C(=O)O | Uncharacterized protein (Equus caballus, UniProt Q38RB9) | peptide binding, competitor, competitive radioligand binding | purified horse MHC class I | pH 7 | IC50 | 0.65 µM
CC(C)(C)C#Cc1cc(-c2ccnc(N)c2)cc2c(N)n[nH]c12 | CHUK (Homo sapiens, UniProt O15111) | inhibitor |  |  | IC50 | 0.0247 µM
CSCC[C@H](NC(=O)[C@@H](N)C(C)C)C(=O)N[C@@H](CCCNC(=N)N)C(=O)N[C@@H](CC(C)C)C(=O)N[C@@H](CCC(N)=O)C(=O)N[C@@H](CO)C(=O)N[C@@H](CCC(=O)O)C(=O)N[C@H](C(=O)N[C@@H](CO)C(=O)N[C@H](C(=O)O)C(C)C)[C@@H](C)O | SCRIB PDZ3 domain | binding, fluorescence polarization | solution | Scribble PDZ3 domain | Kd | 8.8 µM
COCCCOc1cc2c(cc1OC)-c1cc(=O)c(C(=O)O)cn1[C@H](C(C)C)C2 | Terminal nucleotidyltransferase 4B, catalytic domain (Homo sapiens, UniProt Q8NDF8) | polyadenylation activity, Kinase-Glo ATP depletion |  | 1 h, room temperature, with: ATP 25 µM | IC50 | 0.027 µM
O=C1CSC(c2c(F)cccc2Cl)N1c1cccc(S(=O)(=O)Nc2nccs2)c1 (centres unmarked) | gag-pol reverse transcriptase |  |  |  | IC50 | > 4 µM
CN1CCN(CCOc2c(Cl)cc(C(=O)N[C@@H](Cc3ccccc3)C(=O)O)c(O)c2Cl)CC1 | CPSF3 (Homo sapiens, UniProt Q9UKF6) | pre-mRNA cleavage, inhibitor | HeLa nuclear extract | with: Chimera_1 substrate | IC50 | 2.1 µM
COc1cc(Nc2ncc(F)c(Nc3ccc4c(n3)NC(=O)C(C)(C)O4)n2)cc(OC)c1OC | TRHR (Homo sapiens, UniProt P34981) |  |  |  | IC50 | > 10 µM
CC#Cc1cc2ccccc2c2ccccc12 | Cytochrome P450 2A13 | enzyme activity, inhibitor |  | 20 min, pH 7.4 | IC50 | > 180 µM
O=C1CSC(c2cccc(Br)c2)N1c1nc(-c2ccc(S(=O)(=O)N3CCOCC3)cc2)cs1 (centres unmarked) | gag-pol reverse transcriptase |  |  |  | IC50 | > 4 µM

For quick reference, copied from above:
SMILES | target | test | system | conditions | quantity | value
CNC(C)Cc1ccc2nsnc2c1 (centres unmarked) | SLC6A3 (Homo sapiens, UniProt Q01959) |  |  |  | IC50 | 4.5 ± 1.3 µM
O=C1CSC(c2cccc(Br)c2)N1c1nc(-c2ccc(S(=O)(=O)N3CCOCC3)cc2)cs1 (centres unmarked) | gag-pol reverse transcriptase |  |  |  | IC50 | > 4 µM
